Measured values collected from several papers.
Protocols differ between the studies behind these lines. “And” joins repeats or separate records; there may be more than shown. ± marks the error that the study gave.
Dipeptidyl peptidase 8: Dipeptidyl peptidase 8 (Homo sapiens, UniProt Q6V1X1)

SMILES = COc1ccccc1-c1ccncc1C(=O)Nc1nnc(OCc2ccc(Cl)cc2)s1; target = Bifunctional 3'-5' exonuclease/ATP-dependent helicase WRN, residues 500-946 (WRN, Homo sapiens, UniProt Q14191); assay = ATPase activity, ADP-Glo; conditions = 0.12 µM; scale = baseline: 0 µM cpd; measurement = remaining activity; value = 110%
SMILES = CC[C@H](C)[C@@H]1NC(=O)[C@H](Cc2ccc(O)cc2)NC(=O)[C@H](Cc2ccccc2)NC(=O)[C@H](C(C)C)NC(=O)[C@H](Cc2ccccc2)NC(=O)CSC[C@@H](C(=O)N[C@@H](Cc2c[nH]cn2)C(N)=O)NC(=O)[C@H](CC(N)=O)NC(=O)[C@H](Cc2c[nH]c3ccccc23)NC1=O; target = STING1 (Homo sapiens, UniProt Q86WV6, H232R); assay = thermal stability, DSF; conditions = 100 µM; measurement = ΔTm; value = 8.95 °C
SMILES = CCCCCC=CC=C1C(=O)C=CC1CC=CCCCC(=O)O (centres unmarked); target = Protein phosphatase 1G (Homo sapiens, UniProt O15355); assay = competitive isoTOP-ABPP, measured: PPM1G cysteine peptide; system = Ramos soluble proteome; conditions = 100 µM, together with: iodoacetamide probe; scale = baseline: DMSO over compound-treated, higher = stronger cysteine blockade; measurement = isoTOP-ABPP competition ratio; value = 2.2
SMILES = CC(C)Oc1cc(Cl)ccc1CNc1cc(-c2ccccc2)nc2ncnn12; target = GPR3 (Homo sapiens, UniProt P46089); assay = cAMP reporter; system = human cells; conditions = 100 µM; scale = higher is more cAMP; measurement = cAMP luminescence; value = 795 a.u. and 691 a.u. and 656 a.u. and 2590 a.u. and 1920 a.u. and 1040 a.u.
SMILES = Fc1ccc(Nc2nc(NC3CCCCC3)c3ccccc3n2)cc1F; target = ADRB2 (Homo sapiens, UniProt P07550, V126A); assay = β-arrestin2 recruitment, antagonist, BRET; conditions = mutant V126A; scale = baseline: isoprenaline maximal response; measurement = maximal inhibition; value = 6.9%
SMILES = COc1cc(-c2cn(C)c(=O)c3cnccc23)cc(OC)c1CN(C)C; target = Bromodomain testis-specific protein, BD2 (BRDT, Homo sapiens, UniProt Q58F21); measurement = ΔTm; value = -2.4 °C
SMILES = Cc1cn(CC(=O)N(CC(=O)N[C@H]2COC[C@@H]2N(CC(=O)NCCOCCOCC(N)=O)C(=O)Cn2cnc3c(N)ncnc32)[C@H]2COC[C@@H]2NC(=O)CN(C(=O)Cn2cnc3c(N)ncnc32)[C@H]2COC[C@@H]2NC(=O)CN(C(=O)Cn2cnc3c(=O)[nH]c(N)nc32)[C@H]2COC[C@@H]2NC(=O)CN(C(=O)Cn2cc(C)c(=O)[nH]c2=O)[C@H]2COC[C@@H]2NC(=O)CN(C(=O)Cn2cnc3c(=O)[nH]c(N)nc32)[C@H]2COC[C@@H]2NC(=O)CN(C(=O)Cn2cc(C)c(=O)[nH]c2=O)[C@H]2COC[C@@H]2NC(=O)CN(C(=O)Cn2cnc3c(N)ncnc32)[C@H]2COC[C@@H]2NC(=O)CN(C(=O)Cn2cnc3c(=O)[nH]c(N)nc32)[C@H]2COC[C@@H]2N)c(=O)[nH]c1=O; target = complementary RNA; assay = duplex formation, UV melting curve fit; system = PBS; conditions = 1 µM; measurement = ΔS; value = -174.1 ± 1.2 cal/mol/K
SMILES = [N-]=[N+]=N[C@]1(COP(=O)(O)OP(=O)(O)OP(=O)(O)O)O[C@@H](n2ccc(N)nc2=O)[C@@H](F)[C@@H]1O; target = Genome polyprotein, NS5B (Hepatitis C virus genotype 1b, UniProt Q9WMX2); assay = nucleotide incorporation, substrate; measurement = Vmax; value = 0.72 fraction per time
SMILES = CN(Cc1cc(C2CC2)on1)C(=O)c1cccc(-c2ccc3c(c2)CCO3)c1; target = acetoacetyl-CoA synthetase (Cryptococcus neoformans); assay = enzyme activity, inhibitor; conditions = 7.81 µM; measurement = remaining activity; value = 103%
SMILES = O=C(O)C1OC(OC2C(C(=O)O)OC(OC3C(C(=O)O)OC(OC4C(C(=O)O)OC(OC5C(C(=O)O)OC(O)C(O)C5O)C(O)C4O)C(O)C3O)C(O)C2O)C(O)C(O)C1O (centres unmarked); target = Beta-lactoglobulin (LGB, Bos taurus, UniProt P02754, A134V/G80D); assay = isothermal titration calorimetry; conditions = concentration not given, pH 4.00, 37 °C, 50 mM KH2PO4; scale = ligand per protein; measurement = binding stoichiometry; value = 3.2
SMILES = CC1(Cc2ccccc2)C(=O)N(c2cccc(CN3CCN(Cc4ccc(Br)cc4)CC3)c2)C1=O.O=C(O)C(F)(F)F; target = Dipeptidyl peptidase 8; assay = enzyme activity, inhibitor; conditions = 5 µM; measurement = activity vs control; value = < 5%
SMILES = CC(=O)N[C@H]1[C@H]([C@H](O)[C@H](O)CNC(=O)c2ccc(-c3ccccc3)cc2)O[C@@](OCc2cccc(Cl)c2Cl)(C(=O)O)C[C@@H]1O; target = CD22 (Homo sapiens, UniProt P20273); assay = ITC; measurement = ΔG; value = -8.94 ± 0.08 kcal/mol
SMILES = CCC1(CC)C(=O)N(c2cc(O)cc(C(=O)N3CCN(Cc4ccc(Br)cc4)CC3)c2)C1=O; target = Dipeptidyl peptidase 8; assay = enzyme activity, inhibitor; conditions = 5 µM; measurement = activity vs control; value = < 5%
SMILES = CCCCCCCCCCCCC/C=C/C=O; target = Small glutamine-rich tetratricopeptide repeat-containing protein alpha (Homo sapiens, UniProt O43765); assay = competitive isoTOP-ABPP, measured: SGTA cysteine peptide; system = Ramos soluble proteome; conditions = 100 µM, together with: iodoacetamide probe; scale = baseline: DMSO over compound-treated, higher = stronger cysteine blockade; measurement = isoTOP-ABPP competition ratio; value = 1.3
SMILES = O=C1c2sc(-c3ccc(N4CCC(CO)CC4)nc3F)nc2CCN1c1cccnc1; target = ADRA2C (Homo sapiens, UniProt P18825); assay = ligand displacement, radioligand; conditions = 1 µM; measurement = inhibition; value = -1%
SMILES = Cc1cc(C)c(CNC(=O)c2c(C)n(C(C)C3CCC(NC4(C)COC4)CC3)c3ccccc23)c(=O)[nH]1 (centres unmarked); target = EZH2 (Homo sapiens, UniProt Q15910); assay = enzyme activity; measurement = residence time; value = 150 min
SMILES = CC(C)[C@@H]1NC(=O)[C@H](Cc2ccccc2)NC(=O)CSC[C@@H](C(N)=O)NC(=O)[C@H](CCC(=O)O)NC(=O)[C@H](CO)NC(=O)[C@H](Cc2c[nH]c3cccc(Cl)c23)NC(=O)[C@H](C2CCCCC2)NC(=O)[C@H](C(C)C)NC(=O)[C@H](Cc2ccc(O)cc2)NC(=O)[C@H](CC(=O)O)NC(=O)[C@H](Cc2c[nH]c3ccccc23)NC(=O)[C@H](Cc2ccc(N)nc2)NC(=O)[C@H](Cc2c[nH]c3ccc(Cl)cc23)NC(=O)[C@H](CCC(=O)O)NC1=O; target = Interleukin-1 receptor-like 2 (IL1RL2, Homo sapiens, UniProt Q9HB29); assay = reporter gene; system = HEK-Blue IL-36R; conditions = 33.33 µM, 6 h, together with: IL-36γ 0.3 ng/mL; scale = baseline: control; measurement = remaining activity; value = 0.4%
SMILES = CCCCCCCO[C@H]1CO[C@H](CO)[C@@H](O)[C@H](O)[C@@H]1O; target = Type 1 fimbrin D-mannose specific adhesin, lectin domain (fimH, Escherichia coli K-12, UniProt P08191); assay = binding, isothermal titration calorimetry; conditions = 15 °C, individual direct titrations; measurement = -TΔS; value = 0.263 kcal/mol and 0.12 kcal/mol
SMILES = CC1(C)C[C@@H](Nc2cccc(-c3sc(C(=O)O)c(OCC(=O)O)c3Cl)c2)CCN1S(=O)(=O)Cc1cccc(NC(=O)CN2CCC(c3ccc4c(c3)oc(=O)n4C3CCC(=O)NC3=O)CC2)c1 (some centres unmarked); target = PTPN2 (Homo sapiens, UniProt P17706, E41K/R35E/R43E); assay = degrader, bio-layer interferometry; conditions = 250 nM; scale = higher = more binding; measurement = BLI binding response; value = 1.02 a.u.
SMILES = O=C(NC1CCCS(=O)(=O)c2ccccc21)c1ccc2nc(O)cnc2c1 (centres unmarked); target = WD repeat-containing protein 91 (Homo sapiens, UniProt A4D1P6); assay = binder, spectral shift; conditions = concentration not given; measurement = binding; value = no binding
SMILES = Cc1cc(=O)oc2cc(NC(=O)CCCCCCCC(=O)NO)ccc12; target = HDAC8 (Homo sapiens, UniProt Q9BY41); assay = ITC; system = Hepes buffer; conditions = pH 7.5; measurement = TΔS; value = 5.8 kcal/mol
SMILES = CCCCCC(O)/C=C/C=O (centres unmarked); target = Glycine--tRNA ligase (Homo sapiens, UniProt P41250); assay = acylphosphate-ATP probe SILAC-ABPP, measured: GARS; system = ZAK-transfected HEK293T; conditions = 100 µM, together with: acylphosphate-ATP probe; scale = baseline: DMSO over compound-treated; measurement = probe labelling ratio; value = 0.62
SMILES = O=C(Cc1ccc(OCc2ccccc2)cc1)NC1(C(=O)O)CCN(C(=O)c2ccc(-c3cccc(Cl)c3)cc2)CC1; target = ATM (Homo sapiens, UniProt Q13315); assay = enzyme activity, inhibitor; conditions = 10 µM; measurement = activity vs control; value = 88%
SMILES = CC(C)[C@H](NC(=O)[C@@H]1CSSC(C)(C)[C@H](NC(=O)[C@@H](N)CC(=O)O)C(=O)N[C@@H](Cc2ccccc2)C(=O)N[C@@H](Cc2c[nH]c3ccccc23)C(=O)N[C@@H](CCCCN)C(=O)N[C@@H](Cc2ccc(O)cc2)C(=O)N1)C(=O)O; target = UTS2R (Homo sapiens, UniProt Q9UKP6); assay = IP1 accumulation, agonist, IP1 HTRF; system = HEK293T; conditions = 1 h, 37 °C; measurement = span; value = 100%
SMILES = N#CN1CC[C@H](C(=O)Nc2nc3c(s2)CN(C(=O)Cn2cc(CNC(=O)CCCC[C@@H]4SC[C@@H]5NC(=O)N[C@@H]54)nn2)CC3)C1; target = Isochorismatase domain-containing protein 1 (Homo sapiens, UniProt Q96CN7); assay = probe binding, affinity probe, neutravidin pull-down LC-MS/MS; system = HEK293T, cell lysate; conditions = 5 µM, 1 h, single replicate, unit not given; scale = higher = more pulled down; measurement = iBAQ abundance; value = 8.98e+07 and 1.54e+08 and 2.93e+08
SMILES = C[C@@H]1C[C@H](Nc2ccccc2)c2cc(F)ccc2N1C(=O)c1ccc(Cl)cc1; target = Ecdysone receptor (Aedes albopictus, UniProt Q9U3Y4); assay = ligand binding, inhibitor; system = intact cells; conditions = together with: [3H]ponasterone A; scale = direction not given; measurement = pIC50 Z-score; value = 0.49
SMILES = CCOC(=O)C(CC)(CCCSCCCCCCNc1ccc([N+](=O)[O-])c2nonc12)NC(=O)c1ccc(C2CC2)c(Cc2ccc(F)cc2)n1 (centres unmarked); target = Cnr2 (Mus musculus, UniProt P47936); assay = cAMP, agonist; measurement = Emax; value = 122%
SMILES = O=[N+]([O-])c1cc(Br)cc([N+](=O)[O-])c1NS(=O)(=O)c1ccc(Br)cc1; target = PYL10, with HAB1 (Arabidopsis thaliana, UniProt Q8H1R0); assay = antagonist; conditions = 160 µM, together with: ABA 5 µM; scale = higher = more HAB1 activity; measurement = HAB1 phosphatase activity; value = 0.103 a.u. and 0.104 a.u. and 0.101 a.u.
SMILES = O=C(c1cccnc1)N1CCN(CC(OCc2ccc3ccccc3c2)c2ccc(Cl)cc2Cl)CC1 (centres unmarked); target = ULK1 (Homo sapiens, UniProt O75385); assay = enzyme activity, inhibitor, ADP detection; conditions = 0.1 µM; measurement = activity vs control; value = 117%
SMILES = O=P(O)(O)O[C@@H]1[C@@H](OP(=O)(O)O)[C@H](OP(=O)(O)O)[C@H](O)[C@H](OP(=O)(O)O)[C@H]1OP(=O)(O)O; target = Inositol-tetrakisphosphate 1-kinase (Homo sapiens, UniProt Q13572); assay = enzyme activity, substrate; measurement = Km; value = 2.1 µM
SMILES = Cc1cc(C)cc(COc2cc3c(cc2OCc2cc(C)cc(C)c2)C2CC(O)(Cc4cn(CCOCCOCCNC(=O)CCCCC5SCC6NC(=O)NC65)nn4)CC(C)N2CC3)c1 (centres unmarked); target = Exportin-1 (XPO1, Homo sapiens, UniProt O14980); assay = biotinylated probe pull-down; conditions = 10 µM probe; scale = baseline: heavy over light; measurement = SILAC ratio; value = 2.85
SMILES = C[Si](C)(C)C[C@H](CN)CC(=O)O; target = BDKRB2 (Homo sapiens, UniProt P30411); assay = ligand displacement, radioligand; conditions = 250 µM; measurement = inhibition; value = -9%
